# Experimental data pooled from the literature.
# Every numbered part comes from another study and shows a few of its results, in no order.

# Series 1
# Target: Interferon regulatory factor 7, full length, phosphomimetic (IRF7, Homo sapiens, UniProt Q92985, residues 1-503, S101K/S471D/S472D/S475D/S476D/S477D/S483D/S484D/S487D)
# UniProt Q92985, sequence (whole entry, unmodified, looked up): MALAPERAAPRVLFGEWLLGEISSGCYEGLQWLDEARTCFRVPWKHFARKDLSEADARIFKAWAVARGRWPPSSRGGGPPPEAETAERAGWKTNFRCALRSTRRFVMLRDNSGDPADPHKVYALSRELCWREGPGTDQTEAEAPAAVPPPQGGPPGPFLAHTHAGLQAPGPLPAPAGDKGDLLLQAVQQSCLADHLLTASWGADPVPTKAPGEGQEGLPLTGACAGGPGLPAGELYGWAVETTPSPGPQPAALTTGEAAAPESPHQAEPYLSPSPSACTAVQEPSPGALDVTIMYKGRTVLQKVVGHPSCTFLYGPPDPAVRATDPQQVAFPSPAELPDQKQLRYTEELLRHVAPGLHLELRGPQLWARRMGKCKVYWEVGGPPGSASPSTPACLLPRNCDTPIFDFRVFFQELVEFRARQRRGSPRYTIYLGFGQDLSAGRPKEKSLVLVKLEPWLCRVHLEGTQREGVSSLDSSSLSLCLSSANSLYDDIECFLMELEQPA
# Method: protein-binding microarray
# Molecule type: double-stranded DNA, one strand shown
# Sample: in vitro
# Concentration: 250 nM
# Notes: 60-bp whole probe
# Together with: salmon DNA 0.4 mg/ml
# Baseline: random background probes
# Direction: higher = stronger binding
# All sequences stand within: GCCTAGCAC … GTGCTAGGTCTTGATTCGCTTGACGCTGCTG
Sequence,log fluorescence [z-score]
GACAGTTTCCTTTTCCTGAC,6.9
GAGGATATCAGTTTCGAGAC,4.1
TTTTCATTTTTTTTCATCAT,2.29
TTGCTGAAATAATACTGTTA,-0.476
CCCACTTTCACTTCTCCCTT,2.92

# Series 2
# Target: Centromere-binding protein 1, full length, N-terminal tag (CBF1, Saccharomyces cerevisiae, UniProt P17106, residues 1-351)
# UniProt P17106, sequence (whole entry, looked up): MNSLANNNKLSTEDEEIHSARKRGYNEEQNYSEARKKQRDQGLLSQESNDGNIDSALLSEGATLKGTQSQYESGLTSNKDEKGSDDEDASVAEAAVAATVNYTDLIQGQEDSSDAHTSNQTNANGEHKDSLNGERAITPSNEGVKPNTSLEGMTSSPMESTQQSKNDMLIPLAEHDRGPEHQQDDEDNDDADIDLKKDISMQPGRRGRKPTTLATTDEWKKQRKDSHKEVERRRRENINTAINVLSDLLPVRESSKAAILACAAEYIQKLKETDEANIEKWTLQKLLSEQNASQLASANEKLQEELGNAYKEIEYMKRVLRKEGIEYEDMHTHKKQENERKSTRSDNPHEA
# Method: protein-binding microarray
# Molecule type: double-stranded DNA, one strand shown
# Sample: in vitro
# Concentration: 0.8 µM
# Notes: whole 60-bp probe, no competitor
# Direction: higher = stronger binding
# All sequences stand within: … GTCTTGATTCGCTTGACGCTGCTG
Sequence,fluorescence intensity [a.u.]
GAATTAGCCCCTTGTCACGCTGCACGACGCGTATAG,662
CTATTCTCACTCGTATACGCAATCATTTAAATATTC,511
GAATCAAGCAAGGTTAATCACATGGCGTGGCTTTAG,2120
CTAGAGAACTTCTAGCACGTTGTTTACATATCTTTC,762
CTAGGATTCATCTTACACGCGGTCATATTAGGCTTC,563

# Series 3
# Target: RNA binding protein fox-1 homolog 2, RRM domain, GST-SBP tag (RBFOX2, Homo sapiens, UniProt O43251-10, residues 100-194)
# Method: RNA Bind-n-Seq
# Molecule type: RNA
# Sample: in vitro
# Concentration: 365 nM
# Notes: natural RNA segment, single round, ends assumed
# Baseline: no-protein control
# Direction: higher = stronger binding
# All sequences stand within: GGGAGUUCUACAGUCCGACGAUC … UGGAAUUCUCGGGUGCCAA
# Construct (chain): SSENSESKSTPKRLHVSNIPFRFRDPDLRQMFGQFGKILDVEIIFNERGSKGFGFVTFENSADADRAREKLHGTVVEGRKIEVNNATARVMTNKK
Sequence,RBNS enrichment (R)
UUGGUUUGGCCUCCAUCCUCAUCUCUCUUGGGCCAAGCCAGCUGCCUAGGUCCCCCAAGCAUGGGGGACCCCUUCCCACAUAUAAGUUGAGAAGGUGCCUGCCAUAGCCA,0.48
ACGAUAUUUUAAAUAGUUGUGUACAUGAAGCAUGGUUUGUGGUAACUUAUGUGAGGGGUUUUCCCAUUUUUUGUCUUGUUGGUGCUCAAAAAGUUUUGGAUUUUGGAGCA,34.7
UGUGUGGCUCAAGGGUCAUGUAUAGUUUGUGGAAUUUUUCCAAUUAAAUGUCUUGCUUACAGUGGUGUUGCCCCGACUCCAGAUCAGCCUGGGCCACCUUGGGAAGCCAU,0.385
GACAUGAGCAUCUUGGGAUAUCUCUUUAACACUCAAGUAGCAAUUAAAGUUGAUUGUUCAGCUGGAGCCCAGAGAAUUUAAUUACUGUUUUUUUCUUUGUACCUGAUGUG,0.47
UUGACUUGCUUGGUUUCAUUCACCAAACCAACCCAAGUCGUGUCAUUCUUGCCUAUUAACAUCUGAUGUAAGGCGCUCAUAUAGGCUGUGUGUACAAUCUUGGGCACUGA,0.207
CGUUAAAUUUUGUUUGUAUUAAGCACUUUUAAUUUUAUCCUUCCUAAAAAUAGUUUAUUGUAUCUGACAAGAAACUUACUUAACCAUUGUGUCCUUCCCAUCUUUUUUGU,0.631
UUUCGAUAGUUGAUGUCUUCUUGCCUUUUUAAAAAACCAUAUAUAUAUAAAGUUUAGGGUUUGCUCUAUUCUUUGGUAUGGAUUGCUGUGUUCUUUGGGAGGUUAUUAGG,0.481
CAACCCAAGGGACCUCUCACCUUUUGCUGAGCUUCAAUCAGGAAGCUAUUUGCCUGGCUCCAGCAGAUGAUGAGAUAAUGAGGUAGUGGGUUUUUUAUUACUGUUCCAUU,0.668

# Single results of other studies
Substance,target,test,test system,conditions,how to read,endpoint,value
"PhoQ, residues 284 288 289 292 302 303 TYGVAM","PhoP, residues 12 14 15 18 19 LHHVQ (Escherichia coli, UniProt P23836)","Sort-seq, measured: YFP reporter",E. coli,"PhoQ-PhoP variant library, together with: 10 µM Mg2+","baseline: high Mg2+ state, higher = stronger signaling",fold induction,23.2

# For quick reference, copied from above (series 3):
Sequence,RBNS enrichment (R)
UUUCGAUAGUUGAUGUCUUCUUGCCUUUUUAAAAAACCAUAUAUAUAUAAAGUUUAGGGUUUGCUCUAUUCUUUGGUAUGGAUUGCUGUGUUCUUUGGGAGGUUAUUAGG,0.481
UUGGUUUGGCCUCCAUCCUCAUCUCUCUUGGGCCAAGCCAGCUGCCUAGGUCCCCCAAGCAUGGGGGACCCCUUCCCACAUAUAAGUUGAGAAGGUGCCUGCCAUAGCCA,0.48
